Measured values collected from several papers.
Parts stem from different laboratories: compare values within a part only.

Block 1 — method: protein-binding microarray; form: double-stranded DNA, one strand shown; matrix: in vitro; tested at: 0.8 µM; notes: whole 60-bp probe, no competitor; direction: higher = stronger binding
Target: Centromere-binding protein 1, full length, N-terminal tag (CBF1, Saccharomyces cerevisiae, UniProt P17106, residues 1-351)
Chain of UniProt P17106 (whole entry, looked up): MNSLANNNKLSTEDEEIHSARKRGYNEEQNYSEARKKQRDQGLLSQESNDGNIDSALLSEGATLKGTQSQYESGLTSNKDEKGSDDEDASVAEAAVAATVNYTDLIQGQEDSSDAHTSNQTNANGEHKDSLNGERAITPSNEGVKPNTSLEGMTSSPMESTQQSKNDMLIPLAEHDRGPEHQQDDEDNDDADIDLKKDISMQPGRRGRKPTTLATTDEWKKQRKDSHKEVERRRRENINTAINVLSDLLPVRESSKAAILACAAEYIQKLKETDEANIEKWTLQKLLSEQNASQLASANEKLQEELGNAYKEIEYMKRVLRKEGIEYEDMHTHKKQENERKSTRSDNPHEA
| Sequence | fluorescence intensity [a.u.] |
| --- | --- |
| GAAATTATGGTATCCCACGTGATTGAGTGTAACTAGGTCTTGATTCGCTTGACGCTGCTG | 6620 |
| GAATGAGTTACACCCCGCGTGCTAAAAAAGGGGTAGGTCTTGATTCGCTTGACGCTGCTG | 595 |
| GAATGATGTTGCAGACTCGTGATCACAGTTTACTAGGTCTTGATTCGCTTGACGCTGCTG | 3280 |
| CTATCATCAAAACCCCACGTAATGTTTGTTCTCTTCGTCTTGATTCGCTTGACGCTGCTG | 546 |
| CTACGAATGAAAAGCACGTGAACTAACAAACTATTCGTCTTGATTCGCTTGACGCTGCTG | 5400 |
| CTAGTAAGTATCCCGCGCGTGGTCCTCGGGGAATTCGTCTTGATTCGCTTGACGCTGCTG | 491 |
| GAATAGTACGCCTTTCACATGGCCTGTCGATCCTAGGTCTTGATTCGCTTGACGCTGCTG | 584 |
| GAATTGAGCAAAGAGCACGTTGCGAATACGTTTTAGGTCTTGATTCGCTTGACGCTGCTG | 602 |
| TGTACGAAGCTATATAACATCAGTATAGTAGTTAGGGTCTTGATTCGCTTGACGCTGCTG | 543 |
| CTAATAATGTCTTACCACCACACACTTTAACATTTCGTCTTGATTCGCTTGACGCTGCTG | 548 |
| CTATTAAGTTTTATAAACGTGTATATGAGATGTTTCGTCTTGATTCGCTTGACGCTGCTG | 553 |
| CTATCAGGCACACGTGATTCACCTAAACTCGGCTTCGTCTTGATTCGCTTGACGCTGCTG | 10200 |
| CTACAATCAAAACCATGTGAGATACCCACTTCGTTCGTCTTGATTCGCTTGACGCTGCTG | 645 |
| CTATTTTCAAAACACCACGAAAAGACTTCATTCTTCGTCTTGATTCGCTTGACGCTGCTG | 548 |
| CTAGAAATAAAAAATGATAACGTGTATATTATTTTCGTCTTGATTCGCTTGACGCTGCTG | 865 |
| GAACTTTGCTCTGGTCACACTAAATAATCGCGCTAGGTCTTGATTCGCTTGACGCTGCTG | 629 |
| GAAGAATGTTGCCTTCACATGTTAATGAATGAATAGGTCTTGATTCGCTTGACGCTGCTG | 717 |
| GAATGATGTTCTAGTGATGATGTTCTTGTCATATAGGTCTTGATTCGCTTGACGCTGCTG | 547 |
| CTAGTAATGCATAACAACGTGCAATGCAAAGGATTCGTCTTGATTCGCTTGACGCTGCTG | 715 |

Block 2 — method: RNA Bind-n-Seq; form: RNA; matrix: in vitro; tested at: 365 nM; reference: no-protein control; direction: higher = stronger binding
Target: RNA binding protein fox-1 homolog 2, RRM domain, GST-SBP tag (RBFOX2, Homo sapiens, UniProt O43251-10, residues 100-194)
Notes: natural RNA segment, single round, ends assumed
Construct (chain): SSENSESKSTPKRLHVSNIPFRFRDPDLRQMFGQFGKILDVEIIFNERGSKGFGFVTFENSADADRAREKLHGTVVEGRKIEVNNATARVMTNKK
| Sequence | RBNS enrichment (R) |
| --- | --- |
| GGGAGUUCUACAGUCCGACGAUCCUUUAUUUUAUUUAAAGCAUCUGUUUAAUGCAACUUUUAAUCAGAUUUUGCAAAGGGUAUGUAUGUAUUUUAAUAUAGUCUGACCUGAAUUUAUAUGUUUUUAGCUUUAGUGGAAUUCUCGGGUGCCAA | 1.29 |
| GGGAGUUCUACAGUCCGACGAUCCCCAGGCUGCUGCUCUGUGGUAUUUCCAGUCUCAGACUUGUGUUGUGGAGUCAUGGUGUUAGUGUUCUGCCUUUUUAUGUUCUAAGACUACUUGUUAGAGGACGGAAGAUUGGAAUUCUCGGGUGCCAA | 0.532 |
| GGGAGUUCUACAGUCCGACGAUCUUAUCGUGAGGAAAAAGAAACUUCCUUUUGUUCACAUUUAGGACUCUCAGUGCCAUAUGAAGUAGCAAAAGGCAGUAUCGGCCAGAUCAGUGUUACAUUGAUUCUAAAAUUGGAAUUCUCGGGUGCCAA | 0.283 |
| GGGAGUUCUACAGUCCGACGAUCUAAUUGAACAUUUUCAAUUAUAUGCAGACUGACUGAUUCUAAGAUAAAUUCUAAGGAGGUUUCUAAUUUUGUAAUUGUUAAAAAUAGAGUUAAUUUUGACUUUGUUAGAUUGGAAUUCUCGGGUGCCAA | 0.635 |
| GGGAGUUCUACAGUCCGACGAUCUUCCAAAAAAUGUGUGUUGUUUGUUCCUCCUCAUCCUCUUCUGAGACUGUUGUUUUUUUAGAGCUUGAUUGUGGGAGAAAAGCUUGUGUGAAAUUCCCUCUUCACCUCCCUGGAAUUCUCGGGUGCCAA | 1.49 |
| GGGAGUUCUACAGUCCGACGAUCUCCUGGUGUUGAGUUUCUGCAAAUUUCUGGGGGUGAUUUCUGUGACUCUGGGCCCACAGCGGGGAGGCCAAGAGGGGCCCUGUGGACUUUCACCCAGCACUGUGGGGGCCUGGAAUUCUCGGGUGCCAA | 1.31 |
| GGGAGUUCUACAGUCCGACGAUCACCCAGCUGGAUACUCCCAAAAUGUCACAUCCCAUCCAACCUCAGAUCUGAUGCAGUCAUCUGUGUCCCCCAACCAAAGCCCAUUUGGGUCUGAGGGUUCCAGCGUAAAUUGGAAUUCUCGGGUGCCAA | 0.567 |
| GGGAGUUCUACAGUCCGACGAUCGAACCUUUCCCGUUACUGCGUUUUCACCACCUGUCUUCCCCAUGCUUUAUUUAUCUGUAUGAACACAGAUUUGACAUUACAGCUAAGGAAAUAAUUUGAGUUGAUUCAGAUGGAAUUCUCGGGUGCCAA | 0.4 |

Block 3 — method: universal PBM; form: double-stranded DNA, one strand shown; matrix: in vitro; tested at: 600 nM; direction: higher = stronger binding
Target: Sal-like protein 4, full length isoform A (SALL4, Homo sapiens, UniProt Q9UJQ4, residues 1-1053)
Chain of UniProt Q9UJQ4 (whole entry, looked up): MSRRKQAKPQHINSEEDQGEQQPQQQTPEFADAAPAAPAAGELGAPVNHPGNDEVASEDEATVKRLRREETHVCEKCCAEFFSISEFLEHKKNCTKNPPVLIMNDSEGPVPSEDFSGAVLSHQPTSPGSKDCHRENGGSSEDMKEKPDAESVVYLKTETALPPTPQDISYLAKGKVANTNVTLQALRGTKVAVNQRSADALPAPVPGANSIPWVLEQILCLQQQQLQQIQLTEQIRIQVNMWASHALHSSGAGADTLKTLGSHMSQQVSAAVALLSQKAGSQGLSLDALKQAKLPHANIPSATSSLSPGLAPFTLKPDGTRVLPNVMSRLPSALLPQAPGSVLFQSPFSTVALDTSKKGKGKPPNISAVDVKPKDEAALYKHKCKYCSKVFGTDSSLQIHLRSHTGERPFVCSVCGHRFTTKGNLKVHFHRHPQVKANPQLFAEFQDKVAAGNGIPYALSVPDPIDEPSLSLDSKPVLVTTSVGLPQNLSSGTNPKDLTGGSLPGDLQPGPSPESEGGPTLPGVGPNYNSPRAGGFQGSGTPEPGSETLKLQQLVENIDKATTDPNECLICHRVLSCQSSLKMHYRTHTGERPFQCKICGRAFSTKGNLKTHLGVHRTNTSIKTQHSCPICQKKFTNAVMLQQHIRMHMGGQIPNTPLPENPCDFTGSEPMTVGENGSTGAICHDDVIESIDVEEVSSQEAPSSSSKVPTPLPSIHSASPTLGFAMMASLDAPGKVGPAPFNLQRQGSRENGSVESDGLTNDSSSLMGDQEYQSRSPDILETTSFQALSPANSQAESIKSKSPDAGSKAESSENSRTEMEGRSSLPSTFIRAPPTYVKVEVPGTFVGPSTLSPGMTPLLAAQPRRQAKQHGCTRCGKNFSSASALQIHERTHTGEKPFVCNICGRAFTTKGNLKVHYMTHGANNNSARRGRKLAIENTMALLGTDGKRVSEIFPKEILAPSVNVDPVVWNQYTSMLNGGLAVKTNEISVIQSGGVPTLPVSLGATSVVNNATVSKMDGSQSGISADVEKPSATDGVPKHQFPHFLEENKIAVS
Notes: 8-mer, flanks averaged, mean of replicates
| Sequence | E-score |
| --- | --- |
| AACATCCA | -0.0159 |
| CTTATAGA | 0.257 |
| GCCATGCA | -0.0265 |
| CCGGCGTA | -0.297 |
| CCAACAAG | -0.121 |
| AGATACCG | 0.00707 |
| GAAACAAA | 0.238 |
| GCTAAGAC | -0.0196 |
| AACTGCCA | -0.131 |
| ATCTTAGC | 0.0312 |
| AGGCACTA | -0.121 |
| ACATGGCG | -0.196 |
| GAGTGGAC | -0.138 |
| AGGCCGCC | -0.36 |
| ATGGCCTA | 0.0314 |
| AGCACGCG | -0.111 |

Block 4 — method: EMSA with sequencing; form: double-stranded DNA, one strand shown; matrix: in vitro; tested at: 10 and 20 nM; reference: negative control set to 0; direction: higher = stronger binding
Target: Hepatocyte nuclear factor 3-alpha (Foxa1, Mus musculus, UniProt P35582, residues 1-468, full length assumed)
Notes: whole designed probe, mean of two concentrations, ends assumed
Construct (chain): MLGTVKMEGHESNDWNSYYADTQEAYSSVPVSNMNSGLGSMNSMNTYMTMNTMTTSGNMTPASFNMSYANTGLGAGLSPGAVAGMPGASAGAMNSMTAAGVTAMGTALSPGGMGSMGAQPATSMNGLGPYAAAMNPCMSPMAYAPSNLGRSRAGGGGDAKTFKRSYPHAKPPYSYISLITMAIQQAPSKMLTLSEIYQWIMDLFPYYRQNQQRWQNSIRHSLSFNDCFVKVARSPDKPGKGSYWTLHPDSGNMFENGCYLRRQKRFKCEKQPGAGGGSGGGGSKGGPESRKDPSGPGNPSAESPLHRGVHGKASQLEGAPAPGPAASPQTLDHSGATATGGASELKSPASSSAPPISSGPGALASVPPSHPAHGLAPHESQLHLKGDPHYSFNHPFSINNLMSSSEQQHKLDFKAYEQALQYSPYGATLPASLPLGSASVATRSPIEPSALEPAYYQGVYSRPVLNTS
| Sequence | normalised bound fraction [ratio] |
| --- | --- |
| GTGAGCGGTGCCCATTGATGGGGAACATCTTCCCCCTCTTCCTTGCCCCACCAGCTCACCTTCCCGGGTTATTTGCACAAAGGAAAATAAATAAAGCCGGCATTCGTTAACGCAGTTCACGCGCATACTGCTGTTTGCTCTGCATGAATCATGGTCCTTACGCGACGCCAGGCTCCGGGAGAGCAAAGCACCGTGTCAGGCGCATGATCCGGGCTCGCCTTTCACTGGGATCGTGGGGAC | 0.386 |
| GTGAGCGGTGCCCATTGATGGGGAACTTTTTTAGTCTCACTAACTCCAAATCCCCCAAAACAGAAAATGATTCTGTAATTATAAGAGATATAATTTTTCTTCCCTTAGAAGAAGCAAGGTAATCTAGGAATATTGCTTTCTAAGAAATAAAGTATTTTCTTATGCTGGACAAATCATGTTTCCTTAACATAAAGAACTTTATAGTTACATGTAAATTAGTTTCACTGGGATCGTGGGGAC | -0.0415 |
| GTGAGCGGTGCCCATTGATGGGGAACAAAGTAATGAAATAAAAAAAACCTGTTAGCCAAGAATCCTATATCTGGCAAAACCATCCTTCAAAAATGAAGGAGAAATTAAGACATTCCTAGATAATCTAACACTGAGGGAGTTCATTGCTAGTTGGCCTGCCCTACAAGAAATACAAAATACTTCAGGCAGAAGTGAAAAAACACTAAATCTTGAAGCCATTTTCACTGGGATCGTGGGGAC | 0.00765 |
| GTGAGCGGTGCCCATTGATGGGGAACAACAAACAAATAAAACAACTAGTATGGAAGCTAGAATAATGTGATGCACCATTACACCAAATATTCAGTCTTAACATGGTTTTTAATATTATGTAAACATGGAAGGTATTGCCATTGTTCATATGATACAGAATCAATGGTACTCACAATCATCTGAATATGTTGAAAAATGGCATCTTCAAATAAAAATTATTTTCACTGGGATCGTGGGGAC | 0.491 |
| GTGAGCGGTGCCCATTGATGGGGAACCTAGTTCCAGTCTTAGCATGACAATTTCTTCCTGCAACGTACTATTTTCATGCAAGAGGTCTTTTTCTTTCTTATAACTAAGAGAAAGCTAAGTAATCTAAGGGAACTTTTAGTTAGCACTCAATAGATTGATATACCATGATTTCTTCTGAAATTAAAAAATAACATCTGTATTTGTATAATGAAAGAATCCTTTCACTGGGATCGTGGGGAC | 0.166 |

Some of these lines once more (block 3):
| Sequence | E-score |
| --- | --- |
| GAGTGGAC | -0.138 |
| AACATCCA | -0.0159 |
| ATCTTAGC | 0.0312 |
| CCGGCGTA | -0.297 |
| GCTAAGAC | -0.0196 |
| ACATGGCG | -0.196 |
